Measured values from different studies.
Each line is one published result; not all experiments were run side by side.
Effect on: metabolic stability
Host: human

| SMILES | system | conditions | microsomal CLint [µL/min/mg] |
| --- | --- | --- | --- |
| COc1cncc(-c2cc(F)cc(CNC(=O)c3cc(N4CC[C@@](C#N)(C5CC5)C4=O)cc(C)n3)c2)c1 | liver microsomes | 0.5 µM | 249 |
| NC(=O)c1c(F)ccc(OCc2nc3cc(Cl)cnc3s2)c1F | liver microsomes | 10 µM | 7.2 |
| CC12CC3CC(C1)CC(NC(=O)NC1CCC(Oc4ccc(C(=O)O)cc4)CC1)(C3)C2 (centres unmarked) | liver microsomes | – | 13 |
| COc1cc(OC)c(F)c(/C=C/c2cnc3ccn(S(=O)(=O)c4cn(CCF)cn4)c3n2)c1F | liver microsomes | 1 µM, pH 7.4 | 100 |
| CNC(=O)C1CCN(c2cc(C)ccc2NC(=O)c2ccc(-c3cc(O)ccc3C)c(C)c2)CC1 | liver microsomes | 2 µM | 12 |
| [2H]c1c(NS(C)(=O)=O)c([2H])c2c(C(=O)c3ccc(OCCCN(CCCC)CCCC)cc3)c(CCCC)oc2c1[2H] | liver microsomes | 1 µM | 13.5 |
| O=C(CS(=O)(=O)Cc1ccco1)C12CC3CC(CC(C3)C1)C2 | liver microsomes | – | < 3 |
| CNC(=O)C1CCN(c2cc(C)c(F)cc2NC(=O)c2ccc(-c3c(C)ccc4[nH]ncc34)c(C)c2)CC1 | liver microsomes | 2 µM | 2.7 |
| Cc1cc(N2CCC(C#N)(C3(C)CC3)C2=O)cc(C(=O)NCc2cc(F)cc(-c3cnn(C)c3)c2)n1 (racemic) | liver microsomes | 0.5 µM | 55 |
| CNC(=O)C1CCN(c2ccccc2NC(=O)c2ccc(-c3c(C)ccc4[nH]ncc34)c(C)c2)CC1 | liver microsomes | 2 µM | 18 |
| COc1nc2[nH]c(C(F)(F)F)nc2nc1Nc1ccc(OC(F)(F)F)cc1F | hepatocytes | 1 µM | < 8.2 |
| CC1=N[C@H](C)Cc2c(-c3ccc(C)cc3)ccc(O)c21 | liver microsomes | 1 µM | 28.2 |
| CCn1cc(C(=O)NCCNCCO)c(=O)c2cc(OCc3ccc(F)cc3)c(Cl)cc21 | liver microsomes | 1 µM | < 11.6 |
| O=C(C1CCN(c2nnnn2-c2ccc(N3CCCC3)cc2)CC1)N1CCCc2ccccc21 | liver microsomes | 1 µM | > 400 |
| CCC(C)n1c(C(=O)Nc2cnc(C(=O)NC)n(CC(C)C)c2=O)ncc(NC(=O)c2ncc(NC(=O)c3ccccc3)c(=O)n2Cc2ccc(OC)cc2)c1=O (centres unmarked) | liver microsomes | 2 µM, pH 7.4 | 6 |
| CCN(c1nc(N[C@H](CC(N)=O)C(=O)NC)nc(N2CCN(c3ccccc3C#N)CC2)n1)C1CCCCC1 | liver microsomes | – | 22 |
| COc1cc2c(=O)c(C(=O)NCCNCCO)cn(Cc3ccccc3)c2cc1OCc1ccc(C(C)(C)C)cc1 | liver microsomes | 1 µM | < 11.6 |
| COC(=O)c1ccc2c(c1)NC(=O)/C2=C(\Nc1ccc2c(c1)CCN2C(=O)CN1CCOCC1)c1ccccc1 | liver microsomes | 10 µM, pH 7.4 | 90 |
| CCn1cc(C(=O)NCCNCCO)c(=O)c2cc(OCc3ccc(C(F)(F)F)cc3)c(C(F)(F)F)cc21 | liver microsomes | 1 µM | < 11.6 |
| CN1C(=O)C2(Nc3ccccc3C(=O)N2Cc2ccccc2)c2cc(Br)ccc21 (centres unmarked) | liver microsomes | – | > 300 |

A few entries again:
| SMILES | system | conditions | microsomal CLint [µL/min/mg] |
| --- | --- | --- | --- |
| COc1cncc(-c2cc(F)cc(CNC(=O)c3cc(N4CC[C@@](C#N)(C5CC5)C4=O)cc(C)n3)c2)c1 | liver microsomes | 0.5 µM | 249 |
